Results pooled from the literature.
Protocols differ between the studies behind these lines. ± marks the error that the study gave.
VIPR2: Vasoactive intestinal polypeptide receptor 2 (VIPR2, Homo sapiens, UniProt P41587)
Chain of UniProt P41587 (whole entry, looked up): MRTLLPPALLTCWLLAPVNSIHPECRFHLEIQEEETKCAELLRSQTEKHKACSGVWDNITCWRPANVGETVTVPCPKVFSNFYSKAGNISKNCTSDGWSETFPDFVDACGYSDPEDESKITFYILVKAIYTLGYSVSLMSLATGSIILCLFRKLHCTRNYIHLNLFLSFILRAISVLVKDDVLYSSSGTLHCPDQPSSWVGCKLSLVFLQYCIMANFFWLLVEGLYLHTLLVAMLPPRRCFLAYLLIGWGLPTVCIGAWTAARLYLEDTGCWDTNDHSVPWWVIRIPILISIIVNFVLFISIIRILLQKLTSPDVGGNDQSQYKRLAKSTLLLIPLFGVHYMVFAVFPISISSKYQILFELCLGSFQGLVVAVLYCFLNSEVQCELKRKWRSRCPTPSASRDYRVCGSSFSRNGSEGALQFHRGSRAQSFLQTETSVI
Chain of UniProt P21554 (whole entry, unmodified, looked up): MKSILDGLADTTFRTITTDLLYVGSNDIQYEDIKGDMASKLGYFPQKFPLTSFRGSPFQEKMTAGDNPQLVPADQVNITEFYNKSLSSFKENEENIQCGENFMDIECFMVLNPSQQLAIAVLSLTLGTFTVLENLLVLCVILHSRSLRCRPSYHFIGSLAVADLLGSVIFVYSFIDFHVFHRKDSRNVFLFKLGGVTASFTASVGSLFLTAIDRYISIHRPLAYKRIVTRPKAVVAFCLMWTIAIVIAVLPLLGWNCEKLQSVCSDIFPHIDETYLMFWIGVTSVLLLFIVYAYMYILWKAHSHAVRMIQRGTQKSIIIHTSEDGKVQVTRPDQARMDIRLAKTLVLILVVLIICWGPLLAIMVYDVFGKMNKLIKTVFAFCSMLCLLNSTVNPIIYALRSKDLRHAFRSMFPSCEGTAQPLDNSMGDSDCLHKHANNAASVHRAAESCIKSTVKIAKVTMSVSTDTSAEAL
Chain of UniProt P50406 (whole entry, looked up): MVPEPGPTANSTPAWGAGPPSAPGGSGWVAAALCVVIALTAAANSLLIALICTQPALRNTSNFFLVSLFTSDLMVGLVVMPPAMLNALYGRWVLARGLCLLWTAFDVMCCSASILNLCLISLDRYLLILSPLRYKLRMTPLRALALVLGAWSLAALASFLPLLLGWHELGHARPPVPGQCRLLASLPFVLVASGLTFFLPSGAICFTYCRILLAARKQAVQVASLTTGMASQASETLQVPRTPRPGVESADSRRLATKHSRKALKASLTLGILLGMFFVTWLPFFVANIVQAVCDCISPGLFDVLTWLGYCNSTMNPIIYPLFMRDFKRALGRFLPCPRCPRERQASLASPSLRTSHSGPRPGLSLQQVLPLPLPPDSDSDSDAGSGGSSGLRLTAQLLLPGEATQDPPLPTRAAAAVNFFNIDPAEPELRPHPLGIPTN
Chain of UniProt P41586 (whole entry, unmodified, looked up): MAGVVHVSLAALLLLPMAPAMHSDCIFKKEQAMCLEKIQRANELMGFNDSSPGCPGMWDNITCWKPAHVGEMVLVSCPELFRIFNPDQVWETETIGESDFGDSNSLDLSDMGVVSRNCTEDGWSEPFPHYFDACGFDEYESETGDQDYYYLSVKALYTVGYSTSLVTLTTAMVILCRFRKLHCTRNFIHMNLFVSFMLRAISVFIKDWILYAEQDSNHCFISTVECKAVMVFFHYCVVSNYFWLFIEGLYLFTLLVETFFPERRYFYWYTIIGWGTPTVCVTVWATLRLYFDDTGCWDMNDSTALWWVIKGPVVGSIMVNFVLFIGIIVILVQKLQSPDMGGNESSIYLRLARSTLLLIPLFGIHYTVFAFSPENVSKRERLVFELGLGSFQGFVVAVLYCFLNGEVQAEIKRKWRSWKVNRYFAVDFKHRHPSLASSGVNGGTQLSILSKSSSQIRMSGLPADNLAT
Chain of UniProt P36896 (whole entry, looked up): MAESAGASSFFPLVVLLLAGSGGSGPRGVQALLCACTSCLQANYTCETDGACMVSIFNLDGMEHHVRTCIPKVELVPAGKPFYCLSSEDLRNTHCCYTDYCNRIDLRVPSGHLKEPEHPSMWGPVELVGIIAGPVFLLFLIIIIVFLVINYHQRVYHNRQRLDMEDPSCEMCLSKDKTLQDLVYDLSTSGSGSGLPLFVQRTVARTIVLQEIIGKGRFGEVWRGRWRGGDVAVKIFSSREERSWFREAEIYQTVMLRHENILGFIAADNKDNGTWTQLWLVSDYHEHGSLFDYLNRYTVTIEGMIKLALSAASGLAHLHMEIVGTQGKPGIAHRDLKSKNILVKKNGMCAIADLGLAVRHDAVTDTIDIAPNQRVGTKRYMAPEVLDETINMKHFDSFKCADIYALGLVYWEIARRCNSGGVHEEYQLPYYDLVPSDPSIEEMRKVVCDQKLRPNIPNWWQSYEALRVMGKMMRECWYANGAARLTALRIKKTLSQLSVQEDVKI
Chain of UniProt O43613 (whole entry, looked up): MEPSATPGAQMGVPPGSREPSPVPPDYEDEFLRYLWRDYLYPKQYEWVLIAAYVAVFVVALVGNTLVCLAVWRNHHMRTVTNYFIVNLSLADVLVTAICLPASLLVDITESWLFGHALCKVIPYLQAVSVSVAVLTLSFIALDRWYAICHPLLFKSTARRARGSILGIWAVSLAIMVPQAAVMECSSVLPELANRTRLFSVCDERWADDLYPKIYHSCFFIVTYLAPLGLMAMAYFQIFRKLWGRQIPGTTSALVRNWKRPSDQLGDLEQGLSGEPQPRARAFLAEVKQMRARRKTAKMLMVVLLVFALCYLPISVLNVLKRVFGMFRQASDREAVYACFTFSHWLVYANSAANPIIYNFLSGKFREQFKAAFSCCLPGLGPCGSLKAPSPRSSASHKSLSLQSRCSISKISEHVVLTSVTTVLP
Chain of UniProt P52564 (whole entry, looked up): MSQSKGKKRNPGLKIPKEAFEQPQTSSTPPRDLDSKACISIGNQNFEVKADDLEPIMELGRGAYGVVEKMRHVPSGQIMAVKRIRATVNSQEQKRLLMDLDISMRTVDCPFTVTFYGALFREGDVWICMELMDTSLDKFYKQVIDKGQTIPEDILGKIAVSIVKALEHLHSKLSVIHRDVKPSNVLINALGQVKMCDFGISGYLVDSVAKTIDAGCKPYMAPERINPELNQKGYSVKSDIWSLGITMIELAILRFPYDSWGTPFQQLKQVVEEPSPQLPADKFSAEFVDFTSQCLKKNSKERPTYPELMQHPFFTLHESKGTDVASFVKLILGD
Chain of UniProt P35367 (whole entry, looked up): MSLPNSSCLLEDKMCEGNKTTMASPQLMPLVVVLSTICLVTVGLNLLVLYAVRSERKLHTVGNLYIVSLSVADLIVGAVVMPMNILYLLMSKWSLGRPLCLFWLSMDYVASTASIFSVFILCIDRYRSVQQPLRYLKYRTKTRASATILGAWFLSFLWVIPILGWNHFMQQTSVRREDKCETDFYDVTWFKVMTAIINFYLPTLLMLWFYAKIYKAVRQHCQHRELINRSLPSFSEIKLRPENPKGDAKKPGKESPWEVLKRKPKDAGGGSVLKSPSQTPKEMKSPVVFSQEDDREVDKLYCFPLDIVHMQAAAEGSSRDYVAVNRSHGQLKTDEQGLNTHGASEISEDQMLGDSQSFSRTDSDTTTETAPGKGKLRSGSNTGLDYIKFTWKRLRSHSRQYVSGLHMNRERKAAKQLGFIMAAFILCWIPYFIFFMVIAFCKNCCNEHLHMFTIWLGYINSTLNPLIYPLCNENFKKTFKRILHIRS
Chain of UniProt P51878 (whole entry, looked up): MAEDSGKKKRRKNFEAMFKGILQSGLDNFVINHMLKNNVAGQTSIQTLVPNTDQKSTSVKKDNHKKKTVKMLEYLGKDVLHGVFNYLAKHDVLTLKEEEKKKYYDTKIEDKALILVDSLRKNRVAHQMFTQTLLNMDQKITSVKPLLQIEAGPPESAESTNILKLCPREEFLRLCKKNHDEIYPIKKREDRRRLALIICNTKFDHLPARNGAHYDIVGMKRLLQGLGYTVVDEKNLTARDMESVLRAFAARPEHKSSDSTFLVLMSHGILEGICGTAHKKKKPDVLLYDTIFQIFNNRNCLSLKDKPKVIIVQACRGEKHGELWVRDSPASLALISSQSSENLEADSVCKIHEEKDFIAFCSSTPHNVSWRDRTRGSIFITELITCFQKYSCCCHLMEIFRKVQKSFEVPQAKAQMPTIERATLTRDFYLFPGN

SMILES	target or system	test	system	setting	how to read	measurement	result
CCN(CC)C(=O)c1ccc(C(c2cccc(O)c2)N2CC(C)N(Cc3ccccc3)CC2C)cc1 (stereo not drawn)	OPRD1 (Homo sapiens, UniProt P41143, Y129A)	–	–	–	–	Ki	1.91 ± 0.06 nM
C[C@@H](Cc1ccsc1)NC(=O)NC[C@H](Cc1ccc(O)cc1)N(C)C	HTR6 (Homo sapiens, UniProt P50406)	–	–	–	–	Ki	28000 nM
O=C(O)CCn1c(=O)oc2cc(Cl)c(Cl)cc21	HRH1 (Homo sapiens, UniProt P35367)	antagonist	–	median value	–	IC50	> 25100 nM
CSCC[C@H](NC(=O)[C@H](CCC(N)=O)NC(=O)[C@H](CCCCN)NC(=O)[C@H](CCCNC(=N)N)NC(=O)[C@H](Cc1ccc(O)cc1)NC(=O)[C@H](CCCNC(=N)N)NC(=O)[C@H](CO)NC(=O)[C@H](Cc1ccc(O)cc1)NC(=O)[C@H](CO)NC(=O)[C@H](CC(=O)O)NC(=O)[C@@H](NC(=O)[C@@H](N)Cc1ccccc1)[C@@H](C)O)C(=O)N[C@@H](C)C(=O)N[C@H](C(=O)N[C@@H](CCCCN)C(=O)N[C@@H](CCCCN)C(=O)N[C@@H](Cc1ccc(O)cc1)C(=O)N[C@@H](CC(C)C)C(=O)N[C@@H](C)C(=O)N[C@@H](C)C(=O)N[C@H](C(=O)N[C@@H](CC(C)C)C(=O)NCC(=O)N[C@@H](CCCCN)C(=O)N[C@@H](CCCNC(=N)N)C(=O)N[C@@H](Cc1ccc(O)cc1)C(=O)N[C@@H](CCCCN)C(=O)N[C@@H](CCC(N)=O)C(=O)N[C@@H](CCCCn1cc(C[C@H](NC(=O)CNC(=O)[C@H](CO)NC(=O)[C@H](CCCNC(=N)N)NC(=O)[C@H](CO)NC(=O)[C@H](CC(C)C)NC(=O)[C@H](CC(C)C)NC(=O)CNC(=O)[C@H](C)NC(=O)[C@H](CC(C)C)NC(=O)[C@H](CCCNC(=N)N)NC(=O)[C@H](Cc2c[nH]cn2)NC(=O)[C@@H](NC(=O)[C@@H](N)C(C)C)[C@@H](C)O)C(=O)N[C@H](C(=O)N[C@H](C(=O)N[C@@H](CCCCN)C(=O)N[C@@H](CC(N)=O)C(=O)N[C@@H](CC(N)=O)C(=O)N[C@@H](Cc2ccccc2)C(=O)N[C@H](C(=O)N2CCC[C@H]2C(=O)N[C@H](C(=O)N[C@@H](CC(N)=O)C(=O)N[C@H](C(=O)NCC(=O)N[C@@H](CO)C(=O)N[C@@H](CCCCN)C(=O)N[C@@H](C)C(=O)N[C@@H](Cc2ccccc2)C(N)=O)C(C)C)[C@@H](C)O)C(C)C)C(C)C)C(C)C)nn1)C(=O)N[C@H](C(=O)N[C@@H](CCCCN)C(=O)N[C@@H](CC(N)=O)C(=O)N[C@@H](CCCCN)C(N)=O)C(C)C)C(C)C)C(C)C	VIPR2	cAMP accumulation, antagonist	COS-7 transfected	from pA2, single concentration, with: PACAP-38	–	Kb	7410 nM
CC(C)[C@H]1NC(=O)C[C@H]2/C=C/CCSSC[C@@H](NC1=O)C(=O)N[C@H](Cc1cccc3ccccc13)C(=O)NCC(=O)O2	PRKCA (Homo sapiens, UniProt P17252)	enzyme activity, inhibitor	–	10 µM	–	inhibition	1%
CC[C@H](C)[C@H](NC(=O)[C@H](CO)NC(=O)[C@H](CC(N)=O)NC(=O)[C@H](CC(C)C)NC(=O)[C@H](Cc1ccc(O)cc1)NC(=O)[C@H](CCCCN)NC(=O)[C@H](CCCCN)NC(=O)[C@@H](NC(=O)[C@H](C)NC(=O)[C@H](CCSC)NC(=O)[C@H](CCC(N)=O)NC(=O)[C@H](CCCCN)NC(=O)[C@H](CCCN=C(N)N)NC(=O)[C@H](CC(C)C)NC(=O)[C@H](CCCN=C(N)N)NC(=O)[C@@H](NC(=O)[C@H](Cc1ccc(O)cc1)NC(=O)[C@H](CC(N)=O)NC(=O)[C@H](CC(=O)O)NC(=O)[C@@H](NC(=O)[C@H](Cc1ccccc1)NC(=O)[C@@H](NC(=O)[C@H](C)NC(=O)[C@H](CC(=O)O)NC(=O)[C@H](CO)NC(=O)[C@@H](N)Cc1c[nH]cn1)C(C)C)[C@@H](C)O)[C@@H](C)O)C(C)C)C(=O)N[C@@H](CC(C)C)C(=O)N[C@@H](CC(N)=O)C(N)=O	ADCYAP1R1 (Homo sapiens, UniProt P41586, del89-109)	β-arrestin recruitment, agonist, BRET	–	–	–	EC50	316 nM
CS(C)(=O)=Nc1ccc(-c2ccc(-c3nc4cc(O[C@@H]5CO[C@H]6[C@@H]5OC[C@H]6O)[nH]c4cc3F)cc2)cc1	ACVR1B (Homo sapiens, UniProt P36896)	enzyme activity, inhibitor	–	10 µM	–	inhibition	11%
CN(C)[C@H](CNC(=O)/C=C/c1cccc2ccccc12)Cc1ccc(O)cc1	HCRTR1 (Homo sapiens, UniProt O43613)	–	–	–	–	Ki	> 50000 nM
COc1ccc(CN2CCN(Cc3ccccc3)CC2)c(O)c1	Plasmodium falciparum	parasite growth, parasite lactate dehydrogenase	NF54	–	–	IC50	6000 nM
Cc1ccc2c(C(C[N+](=O)[O-])c3cccs3)c(-c3ccccc3)[nH]c2c1 (stereo not drawn)	CNR1 (Homo sapiens, UniProt P21554, I245L)	G protein activation, agonist, BRET	–	–	–	EC50	30 nM
CC(C)CC(C(=O)N1CC2(CC1C#N)C(=O)Nc1ccccc12)N(C)C(=O)c1cc2c(F)cc(F)c(F)c2[nH]1 (stereo not drawn)	Caspase-5 (CASP5, Homo sapiens, UniProt P51878)	enzyme activity, inhibitor	–	–	–	IC50	> 100000 nM
CCCc1cc2cc(-n3nc(CC)c4c3CC(C)(C)CC4=O)cc(N3CCC(O)CC3)c2c(=O)[nH]1	HSP90AA1 (Homo sapiens, UniProt P07900)	fluorescence polarization	–	24 h, 4 °C, with: FITC-geldanamycin tracer	–	Kd	73300 nM
CC(C)(C)C(=O)OCOP(=O)(OCOC(=O)C(C)(C)C)C1CCCN(O)C1=O (stereo not drawn)	SNB-75	–	–	–	–	GI50	1430 nM
O=C1NC2(CC2)COc2ncc(F)cc2[C@H]2COCCN2c2ccn3ncc1c3n2	–	–	Sprague-Dawley rat, male, serum	oral, 2.5 mg/kg/day, 4 weeks daily, end of recovery period	–	potassium	4.66 ± 0.09 mmol/L
CSCC[C@H](NC(=O)[C@H](CCC(N)=O)NC(=O)[C@H](CCCCN)NC(=O)[C@H](CCCNC(=N)N)NC(=O)[C@H](Cc1ccc(O)cc1)NC(=O)[C@H](CCCNC(=N)N)NC(=O)[C@H](CO)NC(=O)[C@H](Cc1ccc(O)cc1)NC(=O)[C@H](CO)NC(=O)[C@H](CC(=O)O)NC(=O)[C@@H](NC(=O)[C@@H](N)Cc1ccccc1)[C@@H](C)O)C(=O)N[C@@H](C)C(=O)N[C@H](C(=O)N[C@@H](CCCCN)C(=O)N[C@@H](CCCCn1cc(C[C@H](NC(=O)CNC(=O)[C@H](CO)NC(=O)[C@H](CCCNC(=N)N)NC(=O)[C@H](CO)NC(=O)[C@H](CC(C)C)NC(=O)[C@H](CC(C)C)NC(=O)CNC(=O)[C@H](C)NC(=O)[C@H](CC(C)C)NC(=O)[C@H](CCCNC(=N)N)NC(=O)[C@H](Cc2c[nH]cn2)NC(=O)[C@@H](NC(=O)[C@@H](N)C(C)C)[C@@H](C)O)C(=O)N[C@H](C(=O)N[C@H](C(=O)N[C@@H](CCCCN)C(=O)N[C@@H](CC(N)=O)C(=O)N[C@@H](CC(N)=O)C(=O)N[C@@H](Cc2ccccc2)C(=O)N[C@H](C(=O)N2CCC[C@H]2C(=O)N[C@H](C(=O)N[C@@H](CC(N)=O)C(=O)N[C@H](C(=O)NCC(=O)N[C@@H](CO)C(=O)N[C@@H](CCCCN)C(=O)N[C@@H](C)C(=O)N[C@@H](Cc2ccccc2)C(N)=O)C(C)C)[C@@H](C)O)C(C)C)C(C)C)C(C)C)nn1)C(=O)N[C@@H](Cc1ccc(O)cc1)C(=O)N[C@@H](CC(C)C)C(=O)N[C@@H](C)C(=O)N[C@@H](C)C(=O)N[C@H](C(=O)N[C@@H](CC(C)C)C(=O)NCC(=O)N[C@@H](CCCCN)C(=O)N[C@@H](CCCNC(=N)N)C(=O)N[C@@H](Cc1ccc(O)cc1)C(=O)N[C@@H](CCCCN)C(=O)N[C@@H](CCC(N)=O)C(=O)N[C@@H](CCCNC(=N)N)C(=O)N[C@H](C(=O)N[C@@H](CCCCN)C(=O)N[C@@H](CC(N)=O)C(=O)N[C@@H](CCCCN)C(N)=O)C(C)C)C(C)C)C(C)C	VIPR2	cAMP accumulation, antagonist	–	with: VIP	–	Kb	240 nM
CN(C)[C@H]1C[C@@]23CC[C@@]4(O2)C(=CC[C@]2(C)[C@@H](c5ccc6ccncc6c5)CC[C@H]24)C=C3[C@@H](O)[C@@H]1O	MAP2K6 (Homo sapiens, UniProt P52564)	ATP probe labelling, inhibitor, KiNativ profiling	–	1 µM	–	inhibition	6.7%
CSCC[C@H](NC(=O)[C@H](CCC(N)=O)NC(=O)[C@H](CCCCN)NC(=O)[C@H](CCCNC(=N)N)NC(=O)[C@H](Cc1ccc(O)cc1)NC(=O)[C@H](CCCNC(=N)N)NC(=O)[C@H](CO)NC(=O)[C@H](Cc1ccc(O)cc1)NC(=O)[C@H](CO)NC(=O)[C@H](CC(=O)O)NC(=O)[C@@H](NC(=O)[C@@H](N)Cc1ccccc1)[C@@H](C)O)C(=O)N[C@@H](C)C(=O)N[C@H](C(=O)N[C@@H](CCCCN)C(=O)N[C@@H](CCCCN)C(=O)N[C@@H](Cc1ccc(O)cc1)C(=O)N[C@@H](CC(C)C)C(=O)N[C@@H](C)C(=O)N[C@@H](C)C(=O)N[C@H](C(=O)N[C@@H](CC(C)C)C(=O)NCC(=O)N[C@@H](CCCCN)C(=O)N[C@@H](CCCNC(=N)N)C(=O)N[C@@H](Cc1ccc(O)cc1)C(=O)N[C@@H](CCCCN)C(=O)N[C@@H](CCC(N)=O)C(=O)N[C@@H](CCCNC(=N)N)C(=O)N[C@H](C(=O)N[C@@H](CCCCN)C(=O)N[C@@H](CC(N)=O)C(=O)N[C@@H](CCCCn1cc(C[C@H](NC(=O)CNC(=O)[C@H](CO)NC(=O)[C@H](CCCNC(=N)N)NC(=O)[C@H](CO)NC(=O)[C@H](CC(C)C)NC(=O)[C@H](CC(C)C)NC(=O)CNC(=O)[C@H](C)NC(=O)[C@H](CC(C)C)NC(=O)[C@H](CCCNC(=N)N)NC(=O)[C@H](Cc2c[nH]cn2)NC(=O)[C@@H](NC(=O)[C@@H](N)C(C)C)[C@@H](C)O)C(=O)N[C@H](C(=O)N[C@H](C(=O)N[C@@H](CCCCN)C(=O)N[C@@H](CC(N)=O)C(=O)N[C@@H](CC(N)=O)C(=O)N[C@@H](Cc2ccccc2)C(=O)N[C@H](C(=O)N2CCC[C@H]2C(=O)N[C@H](C(=O)N[C@@H](CC(N)=O)C(=O)N[C@H](C(=O)NCC(=O)N[C@@H](CO)C(=O)N[C@@H](CCCCN)C(=O)N[C@@H](C)C(=O)N[C@@H](Cc2ccccc2)C(N)=O)C(C)C)[C@@H](C)O)C(C)C)C(C)C)C(C)C)nn1)C(N)=O)C(C)C)C(C)C)C(C)C	VIPR2	cAMP accumulation, antagonist	–	with: PACAP-27	–	Kb	174 nM
COc1ccccc1-c1n[nH]c2nc(NC3CCN(C(=O)Cc4ccc(F)cc4F)CC3)ncc12	–	bead binding, competition bead pull-down, refers to: LINJ.28.3140	Leishmania donovani axenic amastigote extract	10 µM	baseline: vehicle	relative abundance	0.99

A few entries again:
SMILES	target or system	test	system	setting	how to read	measurement	result
CC(C)(C)C(=O)OCOP(=O)(OCOC(=O)C(C)(C)C)C1CCCN(O)C1=O (stereo not drawn)	SNB-75	–	–	–	–	GI50	1430 nM
O=C1NC2(CC2)COc2ncc(F)cc2[C@H]2COCCN2c2ccn3ncc1c3n2	–	–	Sprague-Dawley rat, male, serum	oral, 2.5 mg/kg/day, 4 weeks daily, end of recovery period	–	potassium	4.66 ± 0.09 mmol/L
CSCC[C@H](NC(=O)[C@H](CCC(N)=O)NC(=O)[C@H](CCCCN)NC(=O)[C@H](CCCNC(=N)N)NC(=O)[C@H](Cc1ccc(O)cc1)NC(=O)[C@H](CCCNC(=N)N)NC(=O)[C@H](CO)NC(=O)[C@H](Cc1ccc(O)cc1)NC(=O)[C@H](CO)NC(=O)[C@H](CC(=O)O)NC(=O)[C@@H](NC(=O)[C@@H](N)Cc1ccccc1)[C@@H](C)O)C(=O)N[C@@H](C)C(=O)N[C@H](C(=O)N[C@@H](CCCCN)C(=O)N[C@@H](CCCCn1cc(C[C@H](NC(=O)CNC(=O)[C@H](CO)NC(=O)[C@H](CCCNC(=N)N)NC(=O)[C@H](CO)NC(=O)[C@H](CC(C)C)NC(=O)[C@H](CC(C)C)NC(=O)CNC(=O)[C@H](C)NC(=O)[C@H](CC(C)C)NC(=O)[C@H](CCCNC(=N)N)NC(=O)[C@H](Cc2c[nH]cn2)NC(=O)[C@@H](NC(=O)[C@@H](N)C(C)C)[C@@H](C)O)C(=O)N[C@H](C(=O)N[C@H](C(=O)N[C@@H](CCCCN)C(=O)N[C@@H](CC(N)=O)C(=O)N[C@@H](CC(N)=O)C(=O)N[C@@H](Cc2ccccc2)C(=O)N[C@H](C(=O)N2CCC[C@H]2C(=O)N[C@H](C(=O)N[C@@H](CC(N)=O)C(=O)N[C@H](C(=O)NCC(=O)N[C@@H](CO)C(=O)N[C@@H](CCCCN)C(=O)N[C@@H](C)C(=O)N[C@@H](Cc2ccccc2)C(N)=O)C(C)C)[C@@H](C)O)C(C)C)C(C)C)C(C)C)nn1)C(=O)N[C@@H](Cc1ccc(O)cc1)C(=O)N[C@@H](CC(C)C)C(=O)N[C@@H](C)C(=O)N[C@@H](C)C(=O)N[C@H](C(=O)N[C@@H](CC(C)C)C(=O)NCC(=O)N[C@@H](CCCCN)C(=O)N[C@@H](CCCNC(=N)N)C(=O)N[C@@H](Cc1ccc(O)cc1)C(=O)N[C@@H](CCCCN)C(=O)N[C@@H](CCC(N)=O)C(=O)N[C@@H](CCCNC(=N)N)C(=O)N[C@H](C(=O)N[C@@H](CCCCN)C(=O)N[C@@H](CC(N)=O)C(=O)N[C@@H](CCCCN)C(N)=O)C(C)C)C(C)C)C(C)C	VIPR2	cAMP accumulation, antagonist	–	with: VIP	–	Kb	240 nM
